Assay results collected from several papers.
Protocols differ between the studies behind these lines.
Organism: Staphylococcus aureus

| SMILES | assay | test system | setting | scale | MIC |
| --- | --- | --- | --- | --- | --- |
| CC[C@H](C)[C@H](NC(=O)[C@H](C)NC(=O)[C@@H]1CCCN1C(=O)[C@H](CC(C)C)NC(=O)[C@H](Cc1ccccc1)NC(=O)[C@H](CCCCN)NC(=O)[C@H](CCSC)NC(=O)[C@H](C)NC(=O)[C@H](CCSC)NC(=O)[C@H](CCCCN)NC(=O)[C@H](C)NC(=O)[C@@H](NC(=O)[C@@H](NC(=O)CNC(=O)[C@H](Cc1ccccc1)NC(=O)[C@@H](N)Cc1ccccc1)C(C)C)[C@@H](C)CC)C(=O)N[C@@H](Cc1ccccc1)C(=O)N[C@@H](CCCCN)C(=O)N[C@@H](CCC(N)=O)C(=O)N[C@H](C(=O)N[C@@H](CCC(N)=O)C(=O)N[C@@H](CCCCN)C(=O)N[C@@H](CCCCN)C(=O)N[C@@H](CCCNC(=N)N)C(=O)N[C@@H](CCCCN)C(N)=O)[C@@H](C)CC | broth microdilution | MRSA ATCC 33592 | – | – | 1.56 to 3.12 µM |
| CC[C@H](C)[C@H](NC(=O)[C@H](CCCCN)NC(=O)[C@H](CCCCN)NC(=O)[C@H](Cc1c[nH]c2ccccc12)NC(=O)[C@H](CC(N)=O)NC(=O)[C@@H](N)C(C)C)C(=O)N[C@@H](CC(C)C)C(=O)NCC(=O)N[C@@H](CCCCN)C(=O)N[C@H](C(=O)N[C@H](C(=O)N[C@@H](CCCCN)C(=O)N[C@H](C(=O)N[C@H](C(=O)N[C@@H](CCCCN)C(N)=O)C(C)C)C(C)C)[C@@H](C)CC)[C@@H](C)CC | – | MRSA AMC 201, RPMI medium | 24 h, 37 °C | – | 3.7 µM |
| CC(C)CCCCCCCCC/C=C/C(=O)N[C@@H](CC(=O)O)C(=O)N[C@H]1CNC(=O)[C@@H]2CCCN2C(=O)[C@H](C(C)C)NC(=O)[C@@H](CN)NC(=O)CNC(=O)[C@H](CC(=O)O)NC(=O)CNC(=O)[C@H](CC(=O)O)NC(=O)CNC(=O)[C@H]2CCCCN2C1=O | – | MRSA USA300 | 16 h, 37 °C, together with: Ca2+ 10 mM | – | 8 µg/mL |
| O=C(O)c1ccc(-n2cc(/C=N/Nc3cccc(Cl)c3F)c(-c3ccc4ccccc4c3)n2)cc1 | microbial growth | BAA2312 | drug-resistant strain | – | 3.12 µg/mL |
| CN[C@@H]1[C@H](O)[C@H](NC)[C@H]2O[C@]3(O)[C@H](O[C@@H]2[C@H]1O)O[C@H](C)C[C@@]3(O)CNCc1ccc(F)cc1 | – | MSSA ATCC 29213 | – | – | 25 to 50 µg/mL |
| CC[C@H](C)[C@H](NC(=O)[C@H](CCCCN)NC(=O)[C@H](CCCNC(=N)N)NC(=O)[C@@H](NC(=O)[C@H](CC(C)C)NC(=O)[C@H](CCCCN)NC(=O)[C@H](CC(C)C)NC(=O)[C@@H](NC(=O)[C@H](CCCCN)NC(=O)CNC(=O)[C@H](Cc1ccccc1)NC(=O)[C@@H](N)Cc1ccccc1)C(C)C)[C@@H](C)CC)C(=O)N[C@@H](Cc1ccccc1)C(N)=O | broth microdilution | USA300 MRSA | – | – | 3.12 µM |
| CC(C)C[C@H](NC(=O)[C@H](CCCCN)NC(=O)[C@H](C)NC(=O)[C@H](CC(C)C)NC(=O)[C@H](CCCCN)NC(=O)[C@H](CCC(N)=O)NC(=O)[C@H](CCCCN)NC(=O)[C@H](CC(C)C)NC(=O)[C@H](CCCCN)NC(=O)[C@H](CCC(N)=O)NC(=O)[C@H](CC(C)C)NC(=O)[C@H](CCCCN)NC(=O)[C@H](C)NC(=O)[C@H](CCCCN)NC(=O)[C@H](CC(C)C)NC(=O)[C@H](CCCCN)NC(=O)[C@H](C)NC(=O)[C@H](CC(C)C)NC(=O)[C@H](CCCCN)NC(=O)[C@H](CCC(N)=O)NC(=O)[C@@H](N)CCCCN)C(N)=O | – | ATCC 6538 | – | – | inactive |
| COc1ccc2c(c1)C=[N+]1C3CCCCC3[N+]3=Cc4c(ccc5ccc(OC)cc45)[O][Au-]13[O]2.F[P-](F)(F)(F)(F)F (stereo not shown) | bacterial growth, broth microdilution | vancomycin-intermediate | 24 h | – | > 20 µM |
| CC(C)C[C@@H]1NC(=O)[C@H](C)NC(=O)[C@H](NC(=O)[C@H](CO)NC(=O)[C@@H](CCCCN)NC(=O)[C@@H](CC(C)C)NC(=O)[C@@H](N)Cc2ccccc2)[C@H](C(N)=O)OC(=O)[C@H](C)NC1=O | – | MSSA ATCC 29213 | TFA salt | – | > 32 µg/mL |
| CC(C)C[C@H](NC(=O)[C@H](CC(C)C)NC(=O)[C@H](CCCNC(=N)N)NC(=O)CCCCCNC(=O)/C=C/c1ccc(O)c(O)c1)C(=O)N[C@@H](CCCNC(=N)N)C(N)=O | broth microdilution | ATCC 25923 | 24 h, 37 °C | – | 60 µM |
| NCCCC[C@@H]1NC(=O)[C@@H](Cc2c[nH]c3ccccc23)NC(=O)[C@H](Cc2c[nH]c3ccccc23)NC(=O)[C@@H](N)CSCc2ccc(cc2)CSC[C@@H](C(N)=O)NC(=O)[C@@H](Cc2c[nH]c3ccccc23)NC(=O)[C@H](Cc2c[nH]c3ccccc23)NC(=O)[C@@H](Cc2c[nH]c3ccccc23)NC(=O)[C@H](CCCCN)NC(=O)[C@@H](CCCCN)NC(=O)[C@H](CCCCN)NC(=O)[C@@H](CCCCN)NC1=O | – | COL MRSA | – | – | 32 µg/mL |
| CN1C(=O)[C@@H]2NC(=O)[C@@H]3NC(=O)[C@@H](c4ccc(O)cc4)NC(=O)[C@H](NC(=O)C(NCc4ccc(O)c(O)c4O)c4ccc(O)cc4)Cc4c[nH]c5cc(ccc45)-c4cc3cc(c4O)Oc3ccc(cc3)C[C@H]1C(=O)N[C@@H](C(=O)O)c1ccc(O)c(c1)Oc1ccc2cc1 (stereo partly shown) | – | ATCC 33591 MRSA, Mueller-Hinton broth | – | – | 16 µg/mL |
| CC[C@H](C)[C@H](N)C1=N[C@H](C(=O)N[C@@H](CC(C)C)C(=O)N[C@H](CCC(=O)O)C(=O)N[C@@H](Cc2ccccc2)C(=O)N[C@H]2CCCCNC(=O)[C@H](CC(N)=O)NC(=O)[C@@H](CC(=O)O)NC(=O)[C@H](Cc3c[nH]cn3)NC(=O)[C@@H](Cc3ccccc3)NC(=O)[C@H]([C@@H](C)CC)NC(=O)[C@@H](CCCN)NC2=O)CS1 | – | USA300 MRSA | 18 h, 37 °C, together with: ZnSO4 0.3 mM | – | 4 µg/mL |
| CC[C@H](C)[C@H](NC(=O)[C@@H](NC(=O)CN)C(C)C)C(=O)N[C@@H](Cc1ccccc1)C(=O)N[C@@H](CC(N)=O)C(=O)N[C@@H](C)C(=O)N[C@@H](CC(C)C)C(=O)N[C@@H](CCCCN)C(=O)NCC(=O)N[C@H](C(=O)N[C@@H](C)C(=O)N[C@@H](CCCCN)C(=O)N[C@H](C(=O)N[C@H](C(=O)N[C@@H](C)C(=O)N[C@@H](C)C(=O)N[C@@H](CCC(N)=O)C(=O)N[C@@H](CC(C)C)C(=O)N[C@@H](CC(C)C)C(=O)N[C@@H](CCCCN)C(=O)N[C@@H](CCCCN)C(=O)N[C@@H](C)C(=O)N[C@@H](CCCNC(=N)N)C(=O)N[C@H]1CSSC[C@@H](C(=O)O)NC(=O)[C@H](CO)NC(=O)[C@H](CCCCN)NC(=O)[C@H](CC(=O)O)NC(=O)[C@H](CC(C)C)NC(=O)[C@H](CCCCN)NC1=O)C(C)C)[C@@H](C)O)C(C)C | – | NCTC 10788, Mueller-Hinton broth | together with: CaCl2 2.5 mM | – | 2 µM |
| CCOC(=O)c1cnc(N2CC[C@@H](NC(=O)c3[nH]c(C)c(Cl)c3Cl)[C@@H](OC)C2)o1 | – | ATCC 29213 | – | – | 2 µg/mL |
| O=C(NCCNCCO)c1cn(Cc2ccccc2)c2cc(OCc3ccc(C(F)(F)F)cc3)c(Cl)cc2c1=O | – | ATCC 43300 MRSA | – | ≥80% growth inhibition | < 0.25 µg/mL |
| CCCCCCCCCCCC[S+]([O-])CC1OC(OC2C(N)CC(N)C(OC3OC(CN)C(O)CC3N)C2O)C(O)C(N)C1O (mixture of isomers) | – | NorA | – | – | 37.5 µg/mL |
| CC(C)C[C@H](NC(=O)[C@H](C)NC(=O)CNC(=O)[C@@H](NC(=O)[C@@H](NC(=O)[C@H](CCCCN)NC(=O)[C@H](CCCCN)NC(=O)[C@H](CC(C)C)NC(=O)[C@H](CC(C)C)NC(=O)[C@H](CCCCN)NC(=O)[C@H](CC(C)C)NC(=O)[C@H](CC(C)C)NC(=O)[C@@H](N)CCCCN)C(C)C)C(C)C)C(=O)NCC(N)=O | – | SH1000 GFP-expressing, nutrient broth | 20 h, 37 °C | – | 10 µM |
| O=C1c2ccccc2NC(c2ccccc2O)N1/N=C/c1ccccc1O (stereo not shown) | microbial growth, broth dilution | MRSA | 24 h, drug-resistant strain, clinical isolate | – | > 256 µg/mL |

A few entries again:
| SMILES | assay | test system | setting | scale | MIC |
| --- | --- | --- | --- | --- | --- |
| O=C(O)c1ccc(-n2cc(/C=N/Nc3cccc(Cl)c3F)c(-c3ccc4ccccc4c3)n2)cc1 | microbial growth | BAA2312 | drug-resistant strain | – | 3.12 µg/mL |
| CN[C@@H]1[C@H](O)[C@H](NC)[C@H]2O[C@]3(O)[C@H](O[C@@H]2[C@H]1O)O[C@H](C)C[C@@]3(O)CNCc1ccc(F)cc1 | – | MSSA ATCC 29213 | – | – | 25 to 50 µg/mL |
